Experimental data collected from several papers.
± marks the error that the study gave.

SMILES | test system | conditions | tissue uptake [%ID/g]
N=C(N)NCc1ccc(C(=O)NCCCC[C@H](NC(=O)CCCCCCC(=O)NCCCC[C@H](NC(=O)N[C@@H](CCC(=O)O)C(=O)O)C(=O)O)C(=O)O)cc1[131I] | SCID mouse, PC-3 xenografts, spleen | 21 h | 0.16 ± 0.07
O=C(c1ccc(F)cc1)C1CCN(C2Cc3c(cccc3OCC[18F])CC2O)CC1 (single isomer, unassigned; (-)) | Sprague-Dawley rat, male, whole brain | 120 min post-injection | 0.409 ± 0.016
COc1cc2ccnc(Cc3ccc(O[11CH3])c(OC)c3)c2cc1OC | Sprague-Dawley rat, brain stem | intravenous, 30 min | 0.043 ± 0.004
N=C(N)NCc1ccc(C(=O)NCCCC[C@H](NC(=O)N[C@@H](CCC(=O)O)C(=O)O)C(=O)O)cc1[211At] | SCID mouse, PC-3 xenografts, brain | 14 h | 0.06 ± 0.01
CCNc1cc2[o+]c3cc(NCC)c(C)cc3c(-c3ccccc3C(=O)OCCOCC[18F])c2cc1C | rat, spleen | 120 min | 1.86 ± 0.41
N=C(N)NCc1ccc(C(=O)NCCCC[C@H](NC(=O)N[C@@H](CCC(=O)O)C(=O)O)C(=O)O)cc1[131I] | SCID mouse, PC-3 xenografts, heart | 14 h | 0.03 ± 0.02
C=Cc1cc(O)cc2nc(-c3ccc(O)c([76Br])c3)oc12 | female C57BL/6 mouse, liver | 1 h, high dose, with: estradiol 20 µg blocking | 0.51 ± 0.12
O=C(O)CC[C@H](NC(=O)O[C@@H](CCCCNC(=O)c1ccc([18F])cc1)C(=O)O)C(=O)O | mouse, PC-3 PIP/flu xenografts, bladder | 60 min | 5.5 ± 3.45
CN[C@](C)(C[18F])C(=O)O | SCID mouse U87 xenograft, liver | 30 min, post injection | 8.1 ± 1.6
COc1cc2ncnc(Oc3cccc(N[11C](=O)Nc4cc(C(C)(C)C(F)(F)F)on4)c3)c2cc1OC | Balb/c nude mouse, female, A375 melanoma xenograft, brain | 6.6 MBq, 30 min | 0.13

A few entries again:
SMILES | test system | conditions | tissue uptake [%ID/g]
O=C(O)CC[C@H](NC(=O)O[C@@H](CCCCNC(=O)c1ccc([18F])cc1)C(=O)O)C(=O)O | mouse, PC-3 PIP/flu xenografts, bladder | 60 min | 5.5 ± 3.45
